Experimental data from different studies.
Each line is one published result; not all experiments were run side by side. Values joined by “and” are separate records of one study, mostly repeats; a detail may differ. pKd: −log10 of the molar value.
T1: ssDNA, aptamer; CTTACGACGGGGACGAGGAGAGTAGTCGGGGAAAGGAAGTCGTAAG
Chain of UniProt Q16774 (whole entry, looked up): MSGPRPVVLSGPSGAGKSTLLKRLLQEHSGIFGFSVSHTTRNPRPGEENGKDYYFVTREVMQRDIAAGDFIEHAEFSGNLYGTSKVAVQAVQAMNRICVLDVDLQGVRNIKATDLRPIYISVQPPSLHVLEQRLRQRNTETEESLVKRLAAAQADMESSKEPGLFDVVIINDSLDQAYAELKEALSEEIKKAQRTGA
Chain of UniProt P22736 (whole entry, looked up): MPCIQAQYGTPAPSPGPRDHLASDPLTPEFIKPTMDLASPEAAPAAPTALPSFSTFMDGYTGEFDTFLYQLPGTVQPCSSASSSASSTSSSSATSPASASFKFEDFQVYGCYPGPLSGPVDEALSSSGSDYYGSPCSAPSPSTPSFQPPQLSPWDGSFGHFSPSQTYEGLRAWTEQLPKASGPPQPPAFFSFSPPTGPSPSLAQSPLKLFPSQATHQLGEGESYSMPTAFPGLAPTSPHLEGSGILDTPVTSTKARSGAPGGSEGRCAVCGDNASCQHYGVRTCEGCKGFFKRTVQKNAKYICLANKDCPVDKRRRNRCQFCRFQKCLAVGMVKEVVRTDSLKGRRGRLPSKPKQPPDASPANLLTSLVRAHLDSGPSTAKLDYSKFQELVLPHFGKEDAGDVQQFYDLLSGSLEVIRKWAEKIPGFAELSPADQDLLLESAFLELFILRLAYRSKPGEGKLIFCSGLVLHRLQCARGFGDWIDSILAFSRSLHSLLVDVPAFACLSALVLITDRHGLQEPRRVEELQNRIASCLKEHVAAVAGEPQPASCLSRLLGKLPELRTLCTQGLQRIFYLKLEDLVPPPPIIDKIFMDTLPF
Chain of UniProt P45983 (whole entry, looked up): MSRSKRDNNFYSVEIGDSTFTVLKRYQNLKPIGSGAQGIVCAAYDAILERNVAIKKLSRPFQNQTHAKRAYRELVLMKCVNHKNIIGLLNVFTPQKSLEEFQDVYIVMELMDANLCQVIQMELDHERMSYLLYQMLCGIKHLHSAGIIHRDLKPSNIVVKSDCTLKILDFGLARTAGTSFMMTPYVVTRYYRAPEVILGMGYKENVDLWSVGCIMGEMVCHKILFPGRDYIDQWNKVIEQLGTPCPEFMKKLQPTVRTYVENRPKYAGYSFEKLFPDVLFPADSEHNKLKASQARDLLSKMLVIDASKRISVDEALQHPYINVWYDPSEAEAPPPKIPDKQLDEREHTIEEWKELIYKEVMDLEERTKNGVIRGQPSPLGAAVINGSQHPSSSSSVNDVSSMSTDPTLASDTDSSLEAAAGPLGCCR
Chain of UniProt Q15399 (whole entry, looked up): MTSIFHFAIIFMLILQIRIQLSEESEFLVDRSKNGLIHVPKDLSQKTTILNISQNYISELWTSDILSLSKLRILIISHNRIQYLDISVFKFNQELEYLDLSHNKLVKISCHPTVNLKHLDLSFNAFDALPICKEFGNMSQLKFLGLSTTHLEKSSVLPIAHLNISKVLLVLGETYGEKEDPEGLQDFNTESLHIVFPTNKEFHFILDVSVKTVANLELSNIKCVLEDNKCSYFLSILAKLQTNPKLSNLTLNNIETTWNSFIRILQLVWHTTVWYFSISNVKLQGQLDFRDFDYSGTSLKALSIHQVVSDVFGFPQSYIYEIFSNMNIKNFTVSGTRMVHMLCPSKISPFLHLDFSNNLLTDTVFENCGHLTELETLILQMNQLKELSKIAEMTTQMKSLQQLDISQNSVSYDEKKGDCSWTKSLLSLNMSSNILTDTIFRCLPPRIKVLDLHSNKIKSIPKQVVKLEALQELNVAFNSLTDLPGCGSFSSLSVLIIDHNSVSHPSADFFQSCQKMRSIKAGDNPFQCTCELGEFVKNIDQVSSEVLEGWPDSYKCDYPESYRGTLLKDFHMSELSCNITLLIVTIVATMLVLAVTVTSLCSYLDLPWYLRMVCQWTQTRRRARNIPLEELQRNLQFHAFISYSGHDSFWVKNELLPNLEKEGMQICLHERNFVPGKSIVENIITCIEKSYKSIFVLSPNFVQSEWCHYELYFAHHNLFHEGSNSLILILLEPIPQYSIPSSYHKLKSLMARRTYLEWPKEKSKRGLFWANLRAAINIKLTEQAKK
Chain of UniProt Q13523 (whole entry, looked up): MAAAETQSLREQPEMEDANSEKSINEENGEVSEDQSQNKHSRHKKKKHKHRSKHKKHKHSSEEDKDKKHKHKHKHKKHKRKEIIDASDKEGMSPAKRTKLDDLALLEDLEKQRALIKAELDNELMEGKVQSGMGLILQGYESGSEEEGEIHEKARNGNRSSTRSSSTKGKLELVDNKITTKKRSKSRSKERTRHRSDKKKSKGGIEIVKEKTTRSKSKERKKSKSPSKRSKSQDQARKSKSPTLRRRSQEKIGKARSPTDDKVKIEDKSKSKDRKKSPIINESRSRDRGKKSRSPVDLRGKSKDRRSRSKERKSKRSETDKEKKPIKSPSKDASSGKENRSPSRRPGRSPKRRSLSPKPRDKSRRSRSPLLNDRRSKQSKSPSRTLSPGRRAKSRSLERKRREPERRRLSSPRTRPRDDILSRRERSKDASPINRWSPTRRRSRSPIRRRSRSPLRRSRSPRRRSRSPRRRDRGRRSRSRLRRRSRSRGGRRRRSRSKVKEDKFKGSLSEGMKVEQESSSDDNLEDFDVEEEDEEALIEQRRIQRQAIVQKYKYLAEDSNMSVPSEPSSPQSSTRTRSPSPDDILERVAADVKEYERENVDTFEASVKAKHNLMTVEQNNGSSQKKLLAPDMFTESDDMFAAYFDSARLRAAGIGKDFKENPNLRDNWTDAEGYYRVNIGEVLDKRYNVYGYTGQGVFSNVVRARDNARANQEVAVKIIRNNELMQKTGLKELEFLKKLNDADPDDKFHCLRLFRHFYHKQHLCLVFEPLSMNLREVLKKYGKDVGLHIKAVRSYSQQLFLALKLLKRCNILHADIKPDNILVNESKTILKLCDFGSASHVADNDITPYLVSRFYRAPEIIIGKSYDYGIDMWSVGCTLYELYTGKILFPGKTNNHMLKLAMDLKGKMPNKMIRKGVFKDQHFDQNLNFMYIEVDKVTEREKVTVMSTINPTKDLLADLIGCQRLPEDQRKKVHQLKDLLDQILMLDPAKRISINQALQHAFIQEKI
Chain of UniProt Q96NY8 (whole entry, looked up): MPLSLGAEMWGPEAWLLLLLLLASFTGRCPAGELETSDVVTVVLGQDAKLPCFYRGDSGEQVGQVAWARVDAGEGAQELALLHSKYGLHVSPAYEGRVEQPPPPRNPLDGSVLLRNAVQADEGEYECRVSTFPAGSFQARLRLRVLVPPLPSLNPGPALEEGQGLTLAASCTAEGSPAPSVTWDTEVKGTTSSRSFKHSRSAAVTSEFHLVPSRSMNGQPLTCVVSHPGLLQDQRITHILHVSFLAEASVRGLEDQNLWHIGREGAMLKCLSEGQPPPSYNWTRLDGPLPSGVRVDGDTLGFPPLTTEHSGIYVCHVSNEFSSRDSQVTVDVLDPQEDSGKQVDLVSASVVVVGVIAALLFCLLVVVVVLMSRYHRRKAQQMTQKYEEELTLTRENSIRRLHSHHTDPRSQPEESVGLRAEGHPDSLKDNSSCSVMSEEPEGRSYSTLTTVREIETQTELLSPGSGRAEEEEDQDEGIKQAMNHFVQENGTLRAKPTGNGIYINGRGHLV
Chain of UniProt P41595 (whole entry, looked up): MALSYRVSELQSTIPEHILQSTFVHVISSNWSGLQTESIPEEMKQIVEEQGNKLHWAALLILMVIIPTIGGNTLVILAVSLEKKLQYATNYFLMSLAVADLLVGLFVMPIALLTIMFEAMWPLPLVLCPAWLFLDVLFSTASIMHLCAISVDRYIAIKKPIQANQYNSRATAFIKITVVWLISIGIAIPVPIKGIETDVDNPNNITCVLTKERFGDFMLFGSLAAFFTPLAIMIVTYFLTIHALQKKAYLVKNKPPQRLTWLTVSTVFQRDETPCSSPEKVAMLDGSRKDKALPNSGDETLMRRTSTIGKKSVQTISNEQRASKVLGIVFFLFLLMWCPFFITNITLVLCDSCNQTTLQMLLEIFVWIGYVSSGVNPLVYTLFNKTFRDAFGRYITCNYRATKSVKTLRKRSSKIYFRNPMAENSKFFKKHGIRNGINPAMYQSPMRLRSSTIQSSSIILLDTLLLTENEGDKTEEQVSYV
Chain of UniProt Q8NER1 (whole entry, looked up): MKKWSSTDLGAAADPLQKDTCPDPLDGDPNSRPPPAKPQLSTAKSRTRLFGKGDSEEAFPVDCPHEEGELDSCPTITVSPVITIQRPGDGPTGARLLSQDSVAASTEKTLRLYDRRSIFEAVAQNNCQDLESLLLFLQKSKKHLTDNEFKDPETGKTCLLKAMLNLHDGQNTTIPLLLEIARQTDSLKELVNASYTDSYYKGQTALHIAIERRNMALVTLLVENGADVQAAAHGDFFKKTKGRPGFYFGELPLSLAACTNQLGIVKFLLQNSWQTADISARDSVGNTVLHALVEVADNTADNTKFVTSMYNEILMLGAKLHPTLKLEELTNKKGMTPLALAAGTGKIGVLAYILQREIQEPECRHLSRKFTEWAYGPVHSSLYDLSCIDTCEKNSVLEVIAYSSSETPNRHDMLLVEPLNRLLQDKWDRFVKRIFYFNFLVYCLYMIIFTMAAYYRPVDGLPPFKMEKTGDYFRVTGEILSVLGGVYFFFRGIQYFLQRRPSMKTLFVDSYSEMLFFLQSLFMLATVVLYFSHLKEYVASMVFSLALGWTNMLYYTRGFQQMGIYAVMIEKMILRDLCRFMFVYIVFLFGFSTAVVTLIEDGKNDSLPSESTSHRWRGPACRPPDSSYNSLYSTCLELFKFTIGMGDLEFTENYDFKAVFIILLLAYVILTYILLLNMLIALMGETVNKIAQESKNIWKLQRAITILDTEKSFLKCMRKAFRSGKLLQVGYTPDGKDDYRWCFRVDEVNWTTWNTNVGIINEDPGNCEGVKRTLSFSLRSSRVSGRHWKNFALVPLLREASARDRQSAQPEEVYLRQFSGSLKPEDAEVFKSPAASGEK

SMILES	target	test	system	setting	scale	quantity	value
CNc1ccc(C#N)cc1-n1cnc(-c2ccc([N+](=O)[O-])cc2)c1	Toll-like receptor 1/2 (Homo sapiens, UniProt O60603+Q15399)	reporter gene, agonist	HEK-Blue hTLR2	concentration not given		maximal activation	≥ 50%
C#CCCOC(=O)[C@]1(C)C=C(C(=O)OC(C)(C)C)C(=O)CC1	MAPK8 (Homo sapiens, UniProt P45983)	D-peptide binding, inhibitor, FP peptide displacement		6.25 µM	lower is stronger displacement	fraction bound	0.639
O=c1nc(SCc2cc(F)cc(C(F)(F)F)c2)nc(SCc2csc3ccc(Cl)cc23)[nH]1	TOP2A (Homo sapiens, UniProt P11388)	DNA cleavage		125 µM		mean linear DNA	14%
COc1ccc2c(c1)CN(CCCN1CCN(c3ccccc3OC)CC1)C2=O	HTR2B (Homo sapiens, UniProt P41595)	radioligand binding		concentration not given, with: [3H]LSD		inhibition	96.6%
Nc1nc2c(ncn2[C@@H]2O[C@H](COP(=O)(O)O)[C@@H](O)[C@H]2O)c(=O)[nH]1	GUK1 (Homo sapiens, UniProt Q16774)	enzyme activity, NADH-coupled		15.62 µM, with: NaCl 50 mM		reaction velocity	0.00566 µM/s and 0.0304 µM/s and 0.0326 µM/s
CCCC[C@@H]1NC(=O)[C@H](Cc2ccc(O)cc2)NC(=O)[C@@H]2CCCN2C(=O)[C@H](CC(=O)O)NC(=O)[C@H](C)NC(=O)[C@H](Cc2ccccc2)NC(=O)[C@@H]2CSCCC(=O)N3CN(CN(C3)C(=O)CCSC[C@@H](C(=O)N[C@@H](C)C(N)=O)NC1=O)C(=O)CCSC[C@H](NC(=O)[C@H](C)NC(C)=O)C(=O)N[C@@H]([C@@H](C)CC)C(=O)N[C@@H](CCC(=O)O)C(=O)N[C@@H](CCC(=O)O)C(=O)N[C@H](CCCCNC(=O)CCc1cn(CCOCCOCCOCCOCCOCCC(=O)N[C@H]3CSCCC(=O)N4CN5CN(C4)C(=O)CCSC[C@H](NC(=O)[C@@H](CC(=O)O)NC(=O)[C@H](Cc4cccc6ccccc46)NC(=O)[C@@H]4CCCN4C3=O)C(=O)N[C@@H](CCSC)C(=O)N[C@@H](CCCCNC(=N)N)C(=O)N[C@@H](CC(=O)O)C(=O)N[C@@H](Cc3c[nH]c4ccccc34)C(=O)N[C@@H](CO)C(=O)N[C@@H]([C@@H](C)O)C(=O)N3CCC[C@H]3C(=O)N3C[C@H](O)C[C@H]3C(=O)N[C@@H](Cc3c[nH]c4ccccc34)C(=O)N[C@H](C(N)=O)CSCCC5=O)nn1)C(=O)N[C@@H](CCC(N)=O)C(=O)N[C@@H](Cc1ccc(O)cc1)C(=O)N2	Tumor necrosis factor receptor superfamily member 9/Nectin-4 (Homo sapiens, UniProt Q07011+Q96NY8)	reporter gene, agonist	HT-1376 coculture with reporter cells		baseline: background	Emax	28 fold
COc1cc(CNC(=O)CCCC/C=C/C(C)C)ccc1O	TRPV1 (Homo sapiens, UniProt Q8NER1)	channel gating, single-channel inside-out patch		100 nM, component 4 of four		closed time constant	55.6 ms
CC(=O)Nc1ccc(O)cc1	BRD4 (Homo sapiens, UniProt O60885)	19F NMR, item: tyrosine 97		95 µM	baseline: free protein	chemical shift change	-0.275 ppm
Nc1ncnc2c1ncn2[C@@H]1O[C@H](COP(=O)(O)OP(=O)(O)O)[C@@H](O)[C@H]1O	T1, ssDNA, aptamer	ITC				pKd	4.80
O=C(O)c1ccc(Nc2ncc3c(n2)-c2ccc(Cl)cc2C(c2c(F)cccc2F)=NC3)cc1	human PKCα(h)	kinase activity		1 µM		remaining activity	108%
COc1ccc(Cc2nnc(NS(=O)(=O)c3ccc(Cl)c(Cl)c3)s2)cc1	Glutathione hydrolase 1 proenzyme, without transmembrane domain (Homo sapiens, UniProt P19440)	GSH hydrolysis		37 °C, no inhibition up to 250 µM, with: GSH 5-20 µM		Kii	> 250 µM
CC[C@@H]1[C@H](F)C(=O)N[C@@H]1COc1nccc2cc(C(N)=O)c(OC)cc12	PRPF4B (Homo sapiens, UniProt Q13523)	ATP-site probe binding, ActivX profiling	THP-1 cell lysate	0.04 mM, Lys1 site		inhibition	7.1%
Cc1cccc(/C=C/C(=O)Nc2cccc(-c3ccnc(N4CCC(CO)CC4)c3)c2)c1	Nuclear receptor subfamily 4 group A member 1 (NR4A1, Homo sapiens, UniProt P22736)	SPR		10.0 µM		binding response	83.8 RU
